Measured values collected from several papers.
Every numbered part comes from another study and shows a few of its results, in no order. Substitutions count along the parent as printed.

Study 1
Target: Histone acetyltransferase KAT6A, winged helix 1, GST fusion (KAT6A, Homo sapiens, UniProt Q92794, residues 1-85)
Method: protein binding microarray
Molecule type: double-stranded DNA, one strand shown
Matrix: in vitro
Concentration: not given
Notes: 8-mer, flanks averaged, mean of 2 arrays, mostly near background
Baseline: not given
Direction: higher = stronger binding
Target sequence (chain): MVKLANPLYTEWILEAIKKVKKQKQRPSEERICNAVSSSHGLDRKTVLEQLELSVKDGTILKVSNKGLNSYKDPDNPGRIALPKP
For `GGTCCCAA`, the E-score was -0.173.
For `AAAGCCCA`, the E-score was -0.187.
`ATCTTATA` has an E-score of -0.118.
`AAGTGACA` has an E-score of -0.0396.
With `TGAAGGAA` the E-score was -0.163.
`CCGAGCCA` gave an E-score of 0.049.
The E-score of `TATTTGGA` is reported as -0.226.
`CGCCACTC` gave an E-score of 0.165.
For `AGCCCACT`, the E-score was -0.186.
`GCGCAAAC` has an E-score of 0.288.
With `AGGTGAGG` the E-score was -0.13.
The E-score of `CCGTGGCC` is reported as 0.349.
`ACCGCTGG` gave an E-score of 0.139.
`AAAATGAT` gave an E-score of -0.0952.
With `GAAGAGAC` the E-score was -0.00255.
The E-score of `GAGTAGCA` is reported as -0.0888.
With `AACAGAAT` the E-score was -0.187.
With `CATAAGAG` the E-score was -0.224.
For `AGTGTGCA`, the E-score was -0.211.

Study 2
Target: Centromere-binding protein 1, full length, N-terminal tag (CBF1, Saccharomyces cerevisiae, UniProt P17106, residues 1-351)
Chain of UniProt P17106 (whole entry, looked up): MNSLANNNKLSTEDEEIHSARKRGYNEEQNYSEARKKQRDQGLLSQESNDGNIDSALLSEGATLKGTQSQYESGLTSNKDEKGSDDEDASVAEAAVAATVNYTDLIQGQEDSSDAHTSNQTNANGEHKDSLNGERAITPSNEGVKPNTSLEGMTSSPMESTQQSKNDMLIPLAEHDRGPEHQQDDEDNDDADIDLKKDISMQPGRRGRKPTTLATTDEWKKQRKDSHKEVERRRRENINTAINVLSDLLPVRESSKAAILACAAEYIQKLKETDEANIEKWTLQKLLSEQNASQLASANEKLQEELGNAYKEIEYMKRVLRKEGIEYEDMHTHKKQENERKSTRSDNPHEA
Method: protein-binding microarray
Molecule type: double-stranded DNA, one strand shown
Matrix: in vitro
Concentration: 0.8 µM
Notes: whole 60-bp probe, no competitor
Direction: higher = stronger binding
Constant ends, left off below: … GTCTTGATTCGCTTGACGCTGCTG
With `GAATATAAAGTATGTCATGAGTAAACTAGTTGATAG` the fluorescence intensity was 554 a.u.
`CTAAACAGGACACTACATCAGAGATAATCTTGATTC` has a fluorescence intensity of 518 a.u.
With `CTATTGAATAGTAGTCACATGATCGTTGATTATTTC` the fluorescence intensity was 9140 a.u.
For `GAAAGAGAAAAAAAGAATGATCACAAGAAAACTTAG`, the fluorescence intensity was 572 a.u.
`CTAAGCTTTCTATTACATGTGGGAAGACTAATATTC` gave a fluorescence intensity of 593 a.u.
For `GAATTATTAGCTCACGTGTATACATGTATATAGTAG`, the fluorescence intensity was 6850 a.u.
The fluorescence intensity of `GAATTTTTAATCCTTTGCGTGGTTGTAATTGAATAG` is reported as 558 a.u.
`GAACCAATATCAAATCTGGTGGTAATCCCGATGTAG` gave a fluorescence intensity of 511 a.u.
The fluorescence intensity of `CTATACCCAACATGTCACGTTTCACGAATTCTCTTC` is reported as 2500 a.u.
The fluorescence intensity of `GAACTCGGTATATCCAACGTGCAGGCCAATATCTAG` is reported as 561 a.u.
For `CTAGACGCAAGACACCACCAGAACCAAGAGCATTTC`, the fluorescence intensity was 520 a.u.
With `CCTAACTACTATACAGACATGATATAGCTTCGTACA` the fluorescence intensity was 524 a.u.
The fluorescence intensity of `CTATACAAGAAATATCACGTTGGCGCGCGCTAATTC` is reported as 795 a.u.
`GAACTGGGGTAATCACATGTGATATCTAAGAGATAG` gave a fluorescence intensity of 4020 a.u.
`GAAATAGGCAGTCTCCACGCGATGCCGCCACTTTAG` gave a fluorescence intensity of 523 a.u.
With `GAACTGTTGGTAGCGATGGTGGTGGTAGTGGTGTAG` the fluorescence intensity was 548 a.u.
`CTATCTATAAAATGAATCATGAGGATTAGGCCGTTC` has a fluorescence intensity of 530 a.u.
`CTAATCGATAACAGGGACGTGCGCCGCTAATGTTTC` gave a fluorescence intensity of 521 a.u.

Study 3
Target: CCNB1, cyclin fold, Cln2 fusion (human)
Method: yeast growth competition, sequencing
Matrix: yeast
Notes: strong parent motif
Baseline: not given
Direction: higher = stronger binding
Starting sequence: E2F1 docking peptide (human); PPVKRRLDFETDH
Under “normalised enrichment score”, `D8P` is recorded as 1.28.
`P2H`: “normalised enrichment score” 4.48.
`D12R`: “normalised enrichment score” 4.41.
`T11C`: “normalised enrichment score” 5.12.
`R6T` — result for “normalised enrichment score”: 2.52.
`V3Y`: “normalised enrichment score” 1.81.
`F9N` — result for “normalised enrichment score”: 0.176.
For `K4C`, “normalised enrichment score” read 5.03.
For `V3S`, “normalised enrichment score” read 0.736.
`P2I` — result for “normalised enrichment score”: 4.56.
`E10Y` — result for “normalised enrichment score”: 4.11.
`K4R` — result for “normalised enrichment score”: 5.41.
`D12S`: “normalised enrichment score” 4.82.
Under “normalised enrichment score”, `V3T` is recorded as 3.64.
Under “normalised enrichment score”, `D12W` is recorded as 4.77.
`T11I` — result for “normalised enrichment score”: 4.91.
Under “normalised enrichment score”, `E10P` is recorded as 4.2.
For `D8H`, “normalised enrichment score” read 4.35.
For `D12L`, “normalised enrichment score” read 4.6.
Under “normalised enrichment score”, `T11Q` is recorded as 5.13.
`P2C` — result for “normalised enrichment score”: 5.28.
Under “normalised enrichment score”, `K4M` is recorded as 4.99.

Study 4
Target: Interferon regulatory factor 5, full length, phosphomimetic (IRF5, Homo sapiens, UniProt Q13568-2, residues 1-514, S451D/S453D/S456D/S462D)
Method: protein-binding microarray
Molecule type: double-stranded DNA, one strand shown
Matrix: in vitro
Concentration: 940 nM top
Notes: 60-bp whole probe
With: salmon DNA 0.4 mg/ml
Baseline: random background probes
Direction: higher = stronger binding
Constant ends, left off below: GCCTAGCAC … GTCTTGATTCGCTTGACGCTGCTG
For `GGCGATTTCGGGACTGGAGACGTGCTA`, “fitted relative affinity” read 0.0708 z-score.
For `GACAATATCAGTTTCGAGACGTGCTAG`, “fitted relative affinity” read 3.89 z-score.
Under “fitted relative affinity”, `CCAACTCTGTTTTCGCTTTCTGTGCTA` is recorded as 1.87 z-score.
Under “fitted relative affinity”, `TCACATGTAAATAATCAGACTGTGCTA` is recorded as 0.00744 z-score.
`GACGGTATCGGGACTGGGGAAGTGCTA` — result for “fitted relative affinity”: 3.37 z-score.
`TTAGGTATTGGTCTCGGTTAGTGCTAG`: “fitted relative affinity” 4.67 z-score.
For `ACTGCATTCCCTTTCTCAACGTGCTAG`, “fitted relative affinity” read 1.43 z-score.
For `TTAGATTGCGGGTTTCGATTAGTGCTA`, “fitted relative affinity” read 5.96 z-score.
For `CTTTCTTTTTTTCTTTTATTGTGCTAG`, “fitted relative affinity” read 2.39 z-score.
`GACGGTATCGACTATCGTGACGTGCTA`: “fitted relative affinity” 4.63 z-score.
`TTAGGTTTCCTTCTCCGTTAGTGCTAG` — result for “fitted relative affinity”: 2.3 z-score.
`GAAGATGTGTATATGACAATGTGCTAG` — result for “fitted relative affinity”: -0.286 z-score.
Under “fitted relative affinity”, `GATGAACTGAGTATCGAGACGTGCTAG` is recorded as 1.56 z-score.
`GACGGACTGCTTCTCCTGCCGTGCTAG` — result for “fitted relative affinity”: -0.196 z-score.
Under “fitted relative affinity”, `ATACTGAGAAAGCACTGGACGTGCTAG` is recorded as 0.168 z-score.
`TTAGTTTTCGGGTATCGATTAGTGCTA` — result for “fitted relative affinity”: 5.25 z-score.
For `AGCCGAACAGCAATCGGATGGTGCTAG`, “fitted relative affinity” read -0.448 z-score.
Under “fitted relative affinity”, `TTAGGTTACGGACTGGGTTAGTGCTAG` is recorded as -0.399 z-score.
`TTAGGGTTCGACTATCGGTTAGTGCTA` — result for “fitted relative affinity”: 0.371 z-score.
For `GACTGACTGCTTTTCCTGACGTGCTAG`, “fitted relative affinity” read 0.112 z-score.
Under “fitted relative affinity”, `TTTGAACTGAGTATCGATTAGTGCTAG` is recorded as 5.01 z-score.
For `GACGGTCTCCTACTGATGACGTGCTAG`, “fitted relative affinity” read -0.175 z-score.
For `GACGGTCTCCTTTTGCTGACGTGCTAG`, “fitted relative affinity” read 0.311 z-score.
`TTAGGTATCGGGACTGGGTTAGTGCTA` — result for “fitted relative affinity”: 3.92 z-score.
`TAAGGTATCGGTCTCGGTTAGTGCTAG` — result for “fitted relative affinity”: 7.57 z-score.

A few entries again (study 1):
`AAAATGAT` gave an E-score of -0.0952.
With `GAAGAGAC` the E-score was -0.00255.
The E-score of `GAGTAGCA` is reported as -0.0888.
With `AACAGAAT` the E-score was -0.187.
With `CATAAGAG` the E-score was -0.224.
For `AGTGTGCA`, the E-score was -0.211.
